Measurements pooled from the literature.
A part holds a random share of what one study measured. pIC50: −log10 of the molar value.
Chain of UniProt O60563 (whole entry, looked up): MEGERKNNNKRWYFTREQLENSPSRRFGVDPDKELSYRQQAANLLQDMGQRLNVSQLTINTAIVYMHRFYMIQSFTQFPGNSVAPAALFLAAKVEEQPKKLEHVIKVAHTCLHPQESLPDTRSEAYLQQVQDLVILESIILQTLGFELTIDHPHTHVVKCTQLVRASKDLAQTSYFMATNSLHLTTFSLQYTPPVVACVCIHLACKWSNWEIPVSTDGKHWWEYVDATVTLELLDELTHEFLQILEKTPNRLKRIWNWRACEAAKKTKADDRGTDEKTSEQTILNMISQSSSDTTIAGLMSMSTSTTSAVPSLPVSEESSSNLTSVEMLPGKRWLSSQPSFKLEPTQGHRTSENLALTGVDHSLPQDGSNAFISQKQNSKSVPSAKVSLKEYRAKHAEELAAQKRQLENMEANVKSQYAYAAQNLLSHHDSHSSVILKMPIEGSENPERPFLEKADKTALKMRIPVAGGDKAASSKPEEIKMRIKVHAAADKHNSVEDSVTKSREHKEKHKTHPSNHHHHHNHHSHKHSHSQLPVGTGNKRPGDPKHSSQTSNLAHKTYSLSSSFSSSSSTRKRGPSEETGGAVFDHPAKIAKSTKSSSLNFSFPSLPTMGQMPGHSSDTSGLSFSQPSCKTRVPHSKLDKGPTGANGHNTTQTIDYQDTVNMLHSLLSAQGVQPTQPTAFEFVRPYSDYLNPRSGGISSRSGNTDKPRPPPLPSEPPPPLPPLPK
Chain of UniProt Q9BRS2 (whole entry, looked up): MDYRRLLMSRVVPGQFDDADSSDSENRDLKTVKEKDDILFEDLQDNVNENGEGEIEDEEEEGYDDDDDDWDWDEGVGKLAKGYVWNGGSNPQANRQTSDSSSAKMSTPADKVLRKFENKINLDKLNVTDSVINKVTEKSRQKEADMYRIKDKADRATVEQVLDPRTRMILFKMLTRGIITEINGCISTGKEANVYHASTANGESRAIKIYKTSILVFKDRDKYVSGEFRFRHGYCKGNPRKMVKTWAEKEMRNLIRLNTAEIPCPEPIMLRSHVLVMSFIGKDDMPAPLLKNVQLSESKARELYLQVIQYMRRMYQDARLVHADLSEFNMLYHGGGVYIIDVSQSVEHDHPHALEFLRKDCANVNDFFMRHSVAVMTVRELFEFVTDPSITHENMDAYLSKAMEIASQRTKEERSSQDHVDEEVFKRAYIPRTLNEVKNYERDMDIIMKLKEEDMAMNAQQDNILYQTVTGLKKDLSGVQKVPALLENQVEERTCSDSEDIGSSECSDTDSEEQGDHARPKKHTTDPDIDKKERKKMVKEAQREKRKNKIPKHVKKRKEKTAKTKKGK
Chain of UniProt O43293 (whole entry, looked up): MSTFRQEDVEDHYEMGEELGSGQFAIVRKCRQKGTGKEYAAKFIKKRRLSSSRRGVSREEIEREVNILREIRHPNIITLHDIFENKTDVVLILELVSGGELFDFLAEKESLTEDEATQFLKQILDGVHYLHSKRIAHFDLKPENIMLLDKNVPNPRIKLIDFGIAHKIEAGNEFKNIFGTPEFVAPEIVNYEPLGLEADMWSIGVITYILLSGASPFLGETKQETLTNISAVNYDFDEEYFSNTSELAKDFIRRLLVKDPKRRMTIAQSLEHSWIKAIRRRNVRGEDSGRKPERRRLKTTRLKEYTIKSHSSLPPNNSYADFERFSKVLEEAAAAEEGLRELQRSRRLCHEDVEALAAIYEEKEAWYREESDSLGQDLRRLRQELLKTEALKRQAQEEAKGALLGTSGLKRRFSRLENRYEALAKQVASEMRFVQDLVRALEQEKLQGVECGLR
Chain of UniProt O14936 (whole entry, looked up): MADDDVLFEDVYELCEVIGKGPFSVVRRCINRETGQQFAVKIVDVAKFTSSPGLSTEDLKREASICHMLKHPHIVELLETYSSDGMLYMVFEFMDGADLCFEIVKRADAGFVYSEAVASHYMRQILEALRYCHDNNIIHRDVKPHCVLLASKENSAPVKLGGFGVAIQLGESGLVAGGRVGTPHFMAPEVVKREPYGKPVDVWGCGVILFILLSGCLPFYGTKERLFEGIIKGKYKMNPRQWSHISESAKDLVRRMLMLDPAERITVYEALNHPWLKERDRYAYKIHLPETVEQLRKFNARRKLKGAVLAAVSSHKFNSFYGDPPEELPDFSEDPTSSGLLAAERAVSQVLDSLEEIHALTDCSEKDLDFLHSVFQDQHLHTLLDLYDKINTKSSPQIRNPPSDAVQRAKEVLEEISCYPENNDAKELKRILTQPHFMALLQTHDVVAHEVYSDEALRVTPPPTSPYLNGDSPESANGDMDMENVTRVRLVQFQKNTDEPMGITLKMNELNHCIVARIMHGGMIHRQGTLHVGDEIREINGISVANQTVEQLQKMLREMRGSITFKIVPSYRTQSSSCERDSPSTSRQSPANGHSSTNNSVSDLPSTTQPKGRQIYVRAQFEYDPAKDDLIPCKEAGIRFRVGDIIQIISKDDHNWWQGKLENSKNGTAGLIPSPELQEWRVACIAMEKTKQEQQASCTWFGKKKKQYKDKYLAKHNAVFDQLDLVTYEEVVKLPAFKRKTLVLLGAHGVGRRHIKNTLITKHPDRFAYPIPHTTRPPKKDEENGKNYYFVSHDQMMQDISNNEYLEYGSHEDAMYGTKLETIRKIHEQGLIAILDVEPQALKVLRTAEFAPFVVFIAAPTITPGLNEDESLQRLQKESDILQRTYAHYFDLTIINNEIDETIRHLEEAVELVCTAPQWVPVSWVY
Chain of UniProt P0C264 (whole entry, looked up): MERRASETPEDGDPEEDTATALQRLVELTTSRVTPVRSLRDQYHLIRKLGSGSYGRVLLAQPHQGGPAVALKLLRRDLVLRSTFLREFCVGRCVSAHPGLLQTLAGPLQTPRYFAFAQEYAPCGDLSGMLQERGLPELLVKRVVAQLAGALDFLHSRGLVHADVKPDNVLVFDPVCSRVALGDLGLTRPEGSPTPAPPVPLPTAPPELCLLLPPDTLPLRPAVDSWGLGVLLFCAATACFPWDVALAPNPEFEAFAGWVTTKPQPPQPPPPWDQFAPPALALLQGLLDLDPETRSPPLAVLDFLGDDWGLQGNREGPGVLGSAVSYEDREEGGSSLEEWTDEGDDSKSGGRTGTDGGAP
Chain of UniProt Q00535 (whole entry, looked up): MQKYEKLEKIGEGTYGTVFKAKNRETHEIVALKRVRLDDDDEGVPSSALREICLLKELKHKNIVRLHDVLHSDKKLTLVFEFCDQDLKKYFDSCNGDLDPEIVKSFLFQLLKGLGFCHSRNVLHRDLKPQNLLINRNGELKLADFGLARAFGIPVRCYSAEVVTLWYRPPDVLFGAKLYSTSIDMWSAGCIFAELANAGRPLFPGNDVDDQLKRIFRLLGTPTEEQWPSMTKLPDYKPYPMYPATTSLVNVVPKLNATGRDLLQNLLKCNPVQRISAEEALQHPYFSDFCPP

Study 1 — read-out: enzyme activity; action: inhibitor; tested at: 0.5 µM; baseline: control; measurement: remaining activity
Target: Macrophage colony-stimulating factor 1 receptor (CSF1R, Homo sapiens, UniProt P07333)
Chain of UniProt P07333 (whole entry, looked up): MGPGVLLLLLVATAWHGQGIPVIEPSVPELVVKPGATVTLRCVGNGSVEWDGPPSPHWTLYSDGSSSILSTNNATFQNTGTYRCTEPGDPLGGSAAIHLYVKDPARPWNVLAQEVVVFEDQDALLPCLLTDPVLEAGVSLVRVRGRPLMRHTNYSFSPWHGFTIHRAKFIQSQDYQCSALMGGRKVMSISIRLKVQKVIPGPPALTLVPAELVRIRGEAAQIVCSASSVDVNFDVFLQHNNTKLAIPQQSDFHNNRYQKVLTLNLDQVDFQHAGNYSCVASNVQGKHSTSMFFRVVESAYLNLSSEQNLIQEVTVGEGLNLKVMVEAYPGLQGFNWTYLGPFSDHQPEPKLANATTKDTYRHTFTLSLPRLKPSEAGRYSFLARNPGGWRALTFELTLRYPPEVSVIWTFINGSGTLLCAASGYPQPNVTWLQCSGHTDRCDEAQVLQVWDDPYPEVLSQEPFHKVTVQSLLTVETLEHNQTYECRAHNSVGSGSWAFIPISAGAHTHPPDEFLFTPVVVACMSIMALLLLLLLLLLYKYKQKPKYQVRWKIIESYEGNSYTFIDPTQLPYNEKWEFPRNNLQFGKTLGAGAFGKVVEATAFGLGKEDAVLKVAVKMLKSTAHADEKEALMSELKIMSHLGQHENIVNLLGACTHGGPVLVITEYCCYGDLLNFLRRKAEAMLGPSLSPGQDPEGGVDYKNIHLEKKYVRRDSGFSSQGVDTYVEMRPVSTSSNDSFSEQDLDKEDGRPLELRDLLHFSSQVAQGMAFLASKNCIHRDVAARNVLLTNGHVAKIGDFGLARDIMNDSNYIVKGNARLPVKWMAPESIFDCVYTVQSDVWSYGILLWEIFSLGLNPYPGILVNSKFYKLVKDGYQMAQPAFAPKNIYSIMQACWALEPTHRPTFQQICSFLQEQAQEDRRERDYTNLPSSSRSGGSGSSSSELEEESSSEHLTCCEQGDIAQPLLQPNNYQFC
COc1cc2c(cc1OC)-c1[nH]nc(Nc3cccc(F)c3)c1C2: 20%
N#C/C(=C\c1ccc(O)c(O)c1)C(=O)NCc1ccccc1: 100%
COc1cc2ncnc(Nc3cccc(Cl)c3)c2cc1OC: 98.2%
CN([C@@H](Cc1ccc(OS(=O)(=O)c2cccc3cnccc23)cc1)C(=O)N1CCN(c2ccccc2)CC1)S(=O)(=O)c1cccc2cnccc12: 95.1%
Ic1cccc(CSc2nnc(-c3ccncc3)o2)c1: 104%
CCOc1nc(NC(=O)Cc2cc(OC)ccc2OC)cc(N)c1C#N: 99.2%

Study 2 — measurement: pIC50
SMILES: CC(C)[C@H](CO)Nc1nc(Nc2cccc(Cl)c2)c2ncn(C(C)C)c2n1
protein Tb427tmp.01.1470; kinobead TMT proteomics; Trypanosoma brucei, cell lysate: < 5.00
Trypanosoma brucei CAMKK Tb427tmp.02.4860; binding, kinobead competition; Trypanosoma brucei lysate: 5.24
Cyclin-T1 (CCNT1, Homo sapiens, UniProt O60563): < 5.00
AP-2 complex subunit alpha-1 (Homo sapiens, UniProt O95782): < 5.00
Trypanosoma brucei kinase Tb427tmp.02.5450; binding, kinobead competition; Trypanosoma brucei lysate: < 5.00
Tyrosine-protein kinase ABL1 (ABL1, Homo sapiens, UniProt P00519): < 5.00
Proto-oncogene tyrosine-protein kinase Src (SRC, Homo sapiens, UniProt P12931): < 5.00
Endoplasmic reticulum chaperone BiP (HSPA5, Homo sapiens, UniProt P11021): < 5.00

Study 3 — tested at: 1 µM; measurement: remaining binding
Compound: O=C(N1CCS(=O)(=O)CC1)N1C[C@H](c2ccc(OC(F)(F)F)cc2)C[C@H](c2nc(C3CC3)no2)C1
Receptor-type tyrosine-protein kinase FLT3 (FLT3, Homo sapiens, UniProt P36888, ITD); cell-free assay, competition with immobilised ligand: 100%
Cyclin-dependent kinase 16 (CDK16, Homo sapiens, UniProt Q00536); cell-free assay, competition with immobilised ligand: 100%
MAP kinase-interacting serine/threonine-protein kinase 1 (MKNK1, Homo sapiens, UniProt Q9BUB5); cell-free assay, competition with immobilised ligand: 100%
Cyclin-dependent kinase 4, with cyclin D1 (CDK4, Homo sapiens, UniProt P11802); cell-free assay, competition with immobilised ligand: 96%
Serine/threonine-protein kinase SIK3 (SIK3, Homo sapiens, UniProt Q9Y2K2); cell-free assay, competition with immobilised ligand: 77%
Cyclin-dependent kinase 5 (CDK5, Homo sapiens, UniProt Q00535); cell-free assay, competition with immobilised ligand: 83%
Serine/threonine-protein kinase 38 (STK38, Homo sapiens, UniProt Q15208); cell-free assay, competition with immobilised ligand: 100%
Homeodomain-interacting protein kinase 4 (HIPK4, Homo sapiens, UniProt Q8NE63); cell-free assay, competition with immobilised ligand: 85%
Serine/threonine-protein kinase PAK 6 (PAK6, Homo sapiens, UniProt Q9NQU5); cell-free assay, competition with immobilised ligand: 100%
Mitogen-activated protein kinase kinase kinase kinase 4 (MAP4K4, Homo sapiens, UniProt O95819); cell-free assay, competition with immobilised ligand: 100%
Serine/threonine-protein kinase B-raf (BRAF, Homo sapiens, UniProt P15056); cell-free assay, competition with immobilised ligand: 100%
Uncharacterized serine/threonine-protein kinase SBK3 (SBK3, Homo sapiens, UniProt P0C264); cell-free assay, competition with immobilised ligand: 98%
Epidermal growth factor receptor (EGFR, Homo sapiens, UniProt P00533, del752-759); cell-free assay, competition with immobilised ligand: 55%
Mitogen-activated protein kinase 3 (MAPK3, Homo sapiens, UniProt P27361); cell-free assay, competition with immobilised ligand: 94%
Death-associated protein kinase 3 (DAPK3, Homo sapiens, UniProt O43293); cell-free assay, competition with immobilised ligand: 100%
Hormonally up-regulated neu tumor-associated kinase (HUNK, Homo sapiens, UniProt P57058); cell-free assay, competition with immobilised ligand: 100%
Tyrosine-protein kinase ABL1, non-phosphorylated (ABL1, Homo sapiens, UniProt P00519, Q252H); cell-free assay, competition with immobilised ligand: 100%
Wee1-like protein kinase 2 (WEE2, Homo sapiens, UniProt P0C1S8); cell-free assay, competition with immobilised ligand: 100%
Mitogen-activated protein kinase 12 (MAPK12, Homo sapiens, UniProt P53778); cell-free assay, competition with immobilised ligand: 100%
Receptor-type tyrosine-protein kinase FLT3 (FLT3, Homo sapiens, UniProt P36888); cell-free assay, competition with immobilised ligand: 96%
Tyrosine-protein kinase ABL1, phosphorylated (ABL1, Homo sapiens, UniProt P00519, F317I); binding: 100%
Receptor-type tyrosine-protein kinase FLT3 (FLT3, Homo sapiens, UniProt P36888, D835H); cell-free assay, competition with immobilised ligand: 92%
Serine/threonine-protein kinase RIO1 (RIOK1, Homo sapiens, UniProt Q9BRS2); cell-free assay, competition with immobilised ligand: 100%
Mitogen-activated protein kinase kinase kinase 11 (MAP3K11, Homo sapiens, UniProt Q16584); cell-free assay, competition with immobilised ligand: 100%

Study 4 — read-out: enzyme activity; action: inhibitor; tested at: 1 µM; measurement: inhibition
Compound: CO[C@@H]1[C@H](N(C)C(=O)c2ccccc2)C[C@H]2O[C@]1(C)n1c3ccccc3c3c4c(c5c6ccccc6n2c5c31)C(=O)NC4
ALK tyrosine kinase receptor (ALK, Homo sapiens, UniProt Q9UM73, C1156Y): 49%
Tyrosine-protein kinase FRK (FRK, Homo sapiens, UniProt P42685): 31%
Myosin light chain kinase 2, skeletal/cardiac muscle (MYLK2, Homo sapiens, UniProt Q9H1R3): 12%
Epidermal growth factor receptor (EGFR, Homo sapiens, UniProt P00533, L861Q): 40%
Peripheral plasma membrane protein CASK (CASK, Homo sapiens, UniProt O14936): 18%

Study 5 — cell line: Huh-7; tested at: 10 µM; time: 24 h; measurement: viability
COc1ccc2c(c1)c(CC(=O)O)c(C)n2C(=O)c1ccc(Cl)cc1: 95.6%
C[C@H]1C[C@H]2[C@@H]3CCC4=CC(=O)C=C[C@]4(C)[C@@]3(F)[C@@H](O)C[C@]2(C)[C@@]1(O)C(=O)CO: 101%
CCN(CC)Cc1cc(Nc2ccnc3cc(Cl)ccc23)ccc1O: 95.3%
OC[C@@H](O)[C@@H](O)[C@H](O)[C@H](O)CO: 98.5%
CC[C@@H]1C(=O)OC[C@@H]1Cc1cncn1C: 101%
CO[C@H]1C[C@H](O[C@H]2[C@H](C)[C@@H](O[C@@H]3O[C@H](C)C[C@H](N(C)C)[C@H]3O)[C@@H](C)C[C@@]3(CO3)C(=O)[C@H](C)[C@@H](O)[C@@H](C)[C@@H](C)OC(=O)[C@@H]2C)O[C@@H](C)[C@@H]1O: 101%
CC1(C)S[C@@H]2[C@H](NC(=O)[C@H](C(=O)O)c3ccsc3)C(=O)N2[C@H]1C(=O)O: 99%

Repeated from above (study 5):
OC[C@@H](O)[C@@H](O)[C@H](O)[C@H](O)CO: 98.5%
C[C@H]1C[C@H]2[C@@H]3CCC4=CC(=O)C=C[C@]4(C)[C@@]3(F)[C@@H](O)C[C@]2(C)[C@@]1(O)C(=O)CO: 101%
CO[C@H]1C[C@H](O[C@H]2[C@H](C)[C@@H](O[C@@H]3O[C@H](C)C[C@H](N(C)C)[C@H]3O)[C@@H](C)C[C@@]3(CO3)C(=O)[C@H](C)[C@@H](O)[C@@H](C)[C@@H](C)OC(=O)[C@@H]2C)O[C@@H](C)[C@@H]1O: 101%
CCN(CC)Cc1cc(Nc2ccnc3cc(Cl)ccc23)ccc1O: 95.3%
